# Measurements from different studies.
# Amino acid sequences for entries named in this document (tags omitted). Residues count along the entry.
# UniProt Q585F3, whole entry, looked up: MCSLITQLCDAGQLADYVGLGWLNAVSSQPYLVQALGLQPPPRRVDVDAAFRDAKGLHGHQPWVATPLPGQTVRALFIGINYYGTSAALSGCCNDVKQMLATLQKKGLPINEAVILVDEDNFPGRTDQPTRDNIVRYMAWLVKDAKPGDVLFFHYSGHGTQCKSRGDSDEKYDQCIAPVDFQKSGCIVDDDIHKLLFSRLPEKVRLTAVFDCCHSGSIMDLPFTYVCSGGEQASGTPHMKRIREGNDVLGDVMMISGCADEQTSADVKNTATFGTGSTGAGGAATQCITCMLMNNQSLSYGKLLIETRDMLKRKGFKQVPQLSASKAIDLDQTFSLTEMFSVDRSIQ
# UniProt P18031, 1-321 limits assumed: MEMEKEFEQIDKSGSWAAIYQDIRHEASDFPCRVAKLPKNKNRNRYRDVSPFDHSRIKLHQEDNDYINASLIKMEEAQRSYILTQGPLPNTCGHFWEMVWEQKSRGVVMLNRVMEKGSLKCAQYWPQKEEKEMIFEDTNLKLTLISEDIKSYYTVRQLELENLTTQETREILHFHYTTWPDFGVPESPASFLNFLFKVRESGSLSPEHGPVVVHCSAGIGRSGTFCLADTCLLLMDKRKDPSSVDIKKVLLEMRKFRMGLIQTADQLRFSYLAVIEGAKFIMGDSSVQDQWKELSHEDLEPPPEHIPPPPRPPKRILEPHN
# UniProt P09958, whole entry, looked up: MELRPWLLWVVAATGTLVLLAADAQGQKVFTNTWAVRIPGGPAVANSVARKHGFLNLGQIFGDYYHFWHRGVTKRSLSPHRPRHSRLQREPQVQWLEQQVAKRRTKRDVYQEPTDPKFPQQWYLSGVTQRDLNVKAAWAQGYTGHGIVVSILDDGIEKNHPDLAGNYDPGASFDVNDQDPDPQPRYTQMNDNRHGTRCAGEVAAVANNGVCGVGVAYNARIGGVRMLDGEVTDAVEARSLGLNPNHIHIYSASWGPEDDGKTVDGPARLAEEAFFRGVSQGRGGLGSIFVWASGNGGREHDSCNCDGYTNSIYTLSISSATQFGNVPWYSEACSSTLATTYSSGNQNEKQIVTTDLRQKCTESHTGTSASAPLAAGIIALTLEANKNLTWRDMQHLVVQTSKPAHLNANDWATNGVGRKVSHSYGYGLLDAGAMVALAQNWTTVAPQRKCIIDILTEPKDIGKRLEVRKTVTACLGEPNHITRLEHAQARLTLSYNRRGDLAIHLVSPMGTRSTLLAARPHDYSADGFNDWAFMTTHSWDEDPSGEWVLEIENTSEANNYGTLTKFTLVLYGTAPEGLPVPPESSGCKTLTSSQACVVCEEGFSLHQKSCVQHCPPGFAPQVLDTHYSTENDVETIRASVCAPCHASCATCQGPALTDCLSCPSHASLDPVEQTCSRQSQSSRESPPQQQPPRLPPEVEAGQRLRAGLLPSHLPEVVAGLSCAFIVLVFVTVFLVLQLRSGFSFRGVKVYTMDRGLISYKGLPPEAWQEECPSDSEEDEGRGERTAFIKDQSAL
# Each line is one published result; not all experiments were run side by side. Values joined by “and” are separate records of one study, mostly repeats; a detail may differ. ± gives the spread as reported.
# HLA class I histocompatibility antigen, A alpha chain allele A*80:01: HLA class I histocompatibility antigen, A alpha chain, allele A*80:01 (Homo sapiens, UniProt P04439)
# MCA2: Metacaspase-2 (MCA2, Trypanosoma brucei brucei, UniProt Q585F3)
# PTPN1: Tyrosine-protein phosphatase non-receptor type 1 (PTPN1, Homo sapiens, UniProt P18031)
# FURIN: Furin (FURIN, Homo sapiens, UniProt P09958)
SMILES,target,assay,test system,conditions,how to read,endpoint,result
CC[C@H](C)[C@H](NC(=O)[C@H](CC(C)C)NC(=O)[C@H](C)NC(=O)[C@H](CCCNC(=N)N)NC(=O)[C@@H]1CCCN1C(=O)[C@H](CC(=O)O)NC(=O)[C@H](Cc1ccccc1)NC(=O)CNC(=O)[C@@H](N)CCC(=O)O)C(=O)O,"HLA class I histocompatibility antigen, A alpha chain allele A*80:01",,,,direction not given,z-score,0.38
C[C@H](NC(=O)[C@H](CCCCN)NC(=O)c1ccccc1N)C(=O)N[C@@H](CCCCN)C(=O)N[C@@H](CO)C(=O)N[C@@H](CO)C(=O)N[C@@H](C)C(=O)N[C@@H](CCC(N)=O)C(=O)NCCNc1ccc([N+](=O)[O-])cc1[N+](=O)[O-],MCA2,"enzyme activity, substrate, FRET hydrolysis",Trypanosoma brucei,pH 7.4,,Km,0.49 µM
CC(=O)N[C@@H](CC(=O)O)C(=O)N[C@H](C(=O)N[C@@H](C)C(=O)N[C@@H](CC(=O)O)C(=O)N[C@@H](C)C(=O)N[C@@H](Cc1ccc(OP(=O)(O)O)cc1)C(=O)N[C@@H](C)C(=O)N[C@@H](C)C(N)=O)[C@@H](C)O,PTPN1,"substrate, continuous UV",,pH 7.4,,kcat/Km,1.1e+06 M⁻¹ s⁻¹
CC(C)C[C@H](NC(=O)[C@H](CC(N)=O)NC(=O)[C@H](CO)NC(=O)[C@@H](N)Cc1c[nH]cn1)C(=O)N[C@@H](CC(N)=O)C(=O)N[C@@H](CC(=O)O)C(=O)N[C@H](C(=O)N[C@H](C(=O)N[C@@H](Cc1ccc(O)cc1)C(=O)O)[C@@H](C)O)[C@@H](C)O,"HLA class I histocompatibility antigen, A alpha chain allele A*80:01",,,,direction not given,z-score,0.38
CC(=O)N[C@@H](C)C(=O)N[C@@H](C)C(=O)N[C@@H](Cc1ccc(OP(=O)(O)O)cc1)C(=O)N[C@@H](C)C(=O)N[C@@H](C)C(=O)N[C@@H](CC(=O)O)C(=O)N[C@@H](CC(=O)O)C(=O)N[C@@H](C)C(N)=O,PTPN1,substrate,,"pH 7.4, catalytic domain",,kcat,29 ± 1 s⁻¹
CC[C@H](C)[C@H](N)C(=O)N[C@@H](CCCNC(=N)N)C(=O)N[C@@H](CCSC)C(=O)N[C@@H](Cc1c[nH]c2ccccc12)C(=O)N[C@@H](CC(N)=O)C(=O)N[C@@H](CCC(N)=O)C(=O)N[C@@H](C)C(=O)N[C@@H](C)C(=O)N[C@@H](CC(C)C)C(=O)O,"HLA class I histocompatibility antigen, A alpha chain allele A*80:01",,,,direction not given,z-score,0.38
CC[C@H](C)[C@H](NC(=O)[C@H](CCCNC(=N)N)NC(=O)[C@H](CCCCN)NC(=O)[C@H](CCCNC(=N)N)NC(=O)[C@H](C)NC(C)=O)C(=O)N[C@@H](Cc1ccc(OP(=O)(O)O)cc1)C(=O)N[C@@H](C)C(=O)N[C@@H](C)C(N)=O,PTPN1,"substrate, continuous UV",,pH 7.4,,kcat/Km,140000 M⁻¹ s⁻¹
CC(C)C[C@H](NC(=O)[C@H](CC(C)C)NC(=O)[C@H](CCCNC(=N)N)NC(=O)[C@H](Cc1ccccc1)NC(=O)[C@@H](NC(=O)[C@@H](N)CCC(=O)O)[C@@H](C)O)C(=O)N[C@@H](CCCNC(=N)N)C(=O)N[C@@H](CO)C(=O)N[C@@H](Cc1ccccc1)C(=O)O,"HLA class I histocompatibility antigen, A alpha chain, allele A*26:03 (Homo sapiens, UniProt P04439)",,,,direction not given,z-score,-1.58
C[C@H](NC(=O)[C@H](CO)NC(=O)[C@H](CCCNC(=N)N)NC(=O)[C@H](CCCNC(=N)N)NC(=O)[C@H](CCCCN)NC(=O)[C@H](CCCNC(=N)N)NC(=O)[C@H](CCCNC(=N)N)NC(=O)[C@H](CO)NC(=O)c1ccccc1N)C(=O)N[C@@H](CO)C(=O)N[C@H](C(=O)N[C@@H](CCC(N)=O)C(=O)NCCNc1ccc([N+](=O)[O-])cc1[N+](=O)[O-])[C@@H](C)O,FURIN,substrate,,pH 7,,kcat,7.8 s⁻¹
CC(=O)OCC1=C(C(=O)O)N2C(=O)C(=CC(=O)OC(C)(C)C)C2S(=O)(=O)C1 (stereo not shown),"Beta-lactamase SHV-1 (bla, Klebsiella pneumoniae, UniProt P0AD64)",,,with: nitrocefin,,kinact,0.001 s⁻¹
CC[C@H](C)[C@H](NC(=O)CNC(=O)c1ccccc1N)C(=O)N[C@@H](CCCNC(=N)N)C(=O)N[C@@H](CCCNC(=N)N)C(=O)N[C@@H](CCCCN)C(=O)N[C@@H](CCCNC(=N)N)C(=O)N[C@@H](CO)C(=O)N[C@H](C(=O)N[C@@H](CO)C(=O)N[C@@H](Cc1cnc[nH]1)C(=O)N[C@@H](CCC(N)=O)C(=O)NCCNc1ccc([N+](=O)[O-])cc1[N+](=O)[O-])C(C)C,FURIN,substrate,,pH 7,,kcat,32.6 s⁻¹
CC(C)[C@H](NC(=O)[C@H](C)NC(=O)[C@H](C)NC(=O)[C@@H](N)Cc1c[nH]cn1)C(=O)N[C@@H](CCCNC(=N)N)C(=O)N[C@@H](CCCNC(=N)N)C(=O)N[C@@H](CC(N)=O)C(=O)N[C@@H](C)C(=O)N[C@@H](Cc1ccccc1)C(=O)O,"HLA class I histocompatibility antigen, A alpha chain allele A*80:01",,,,direction not given,z-score,0.38
C[C@@H](O)[C@H](NC(=O)c1ccccc1N)C(=O)N[C@@H](Cc1c[nH]cn1)C(=O)N[C@@H](CCCNC(=N)N)C(=O)N[C@H](C(=O)N[C@@H](CCCNC(=N)N)C(=O)N[C@@H](CCCNC(=N)N)C(=O)N[C@@H](CO)C(=O)N[C@H](C(=O)N[C@@H](CO)C(=O)N[C@@H](CC(=O)O)C(=O)N[C@@H](CCC(N)=O)C(=O)NCCNc1ccc([N+](=O)[O-])cc1[N+](=O)[O-])[C@@H](C)O)[C@@H](C)O,FURIN,substrate,,,baseline: with KCl over without KCl,kcat/Km ratio,25.4
CC(=O)N[C@@H](C)C(=O)N[C@@H](Cc1c[nH]c2ccccc12)C(=O)N[C@@H](CO)C(=O)N[C@@H](Cc1ccc(OP(=O)(O)O)cc1)C(=O)N[C@@H](C)C(=O)N[C@@H](CC(=O)O)C(=O)N[C@@H](Cc1ccc(OP(=O)(O)O)cc1)C(=O)N[C@@H](C)C(=O)N[C@@H](C)C(N)=O,PTPN1,"substrate, continuous UV",,pH 7.4,,kcat/Km,2.35e+07 M⁻¹ s⁻¹
C[C@@H](O)[C@H](NC(=O)[C@H](CO)NC(=O)[C@H](CCCNC(=N)N)NC(=O)[C@H](CCCCN)NC(=O)[C@@H](NC(=O)[C@H](CCCNC(=N)N)NC(=O)[C@H](CC(N)=O)NC(=O)[C@H](Cc1c[nH]cn1)NC(=O)c1ccccc1N)[C@@H](C)O)C(=O)N[C@@H](CC(=O)O)C(=O)NCC(=O)N[C@@H](CCC(N)=O)C(=O)NCCNc1ccc([N+](=O)[O-])cc1[N+](=O)[O-],FURIN,substrate,,,baseline: with KCl over without KCl,kcat/Km ratio,43 and 43.2
C[C@H](NC(=O)[C@H](CCCNC(=N)N)NC(=O)c1ccccc1N)C(=O)N[C@@H](CCCNC(=N)N)C(=O)N[C@@H](CO)C(=O)N[C@@H](CO)C(=O)N[C@@H](C)C(=O)N[C@@H](CCC(N)=O)C(=O)NCCNc1ccc([N+](=O)[O-])cc1[N+](=O)[O-],MCA2,"enzyme activity, substrate, FRET hydrolysis",Trypanosoma brucei,pH 7.4,,Km,0.37 µM

# Excerpt of the above:
SMILES,target,assay,test system,conditions,how to read,endpoint,result
CC(C)C[C@H](NC(=O)[C@H](CC(C)C)NC(=O)[C@H](CCCNC(=N)N)NC(=O)[C@H](Cc1ccccc1)NC(=O)[C@@H](NC(=O)[C@@H](N)CCC(=O)O)[C@@H](C)O)C(=O)N[C@@H](CCCNC(=N)N)C(=O)N[C@@H](CO)C(=O)N[C@@H](Cc1ccccc1)C(=O)O,"HLA class I histocompatibility antigen, A alpha chain, allele A*26:03 (Homo sapiens, UniProt P04439)",,,,direction not given,z-score,-1.58
CC(C)C[C@H](NC(=O)[C@H](CC(N)=O)NC(=O)[C@H](CO)NC(=O)[C@@H](N)Cc1c[nH]cn1)C(=O)N[C@@H](CC(N)=O)C(=O)N[C@@H](CC(=O)O)C(=O)N[C@H](C(=O)N[C@H](C(=O)N[C@@H](Cc1ccc(O)cc1)C(=O)O)[C@@H](C)O)[C@@H](C)O,"HLA class I histocompatibility antigen, A alpha chain allele A*80:01",,,,direction not given,z-score,0.38
